Assay results from different studies.
Each line is one published result; not all experiments were run side by side.
rep main protease: Replicase polyprotein 1ab, main protease (rep, Porcine epidemic diarrhea virus, UniProt P0C6Y4)
CDK7 with cyclin H: Cyclin-dependent kinase 7, with cyclin H (CDK7, Homo sapiens, UniProt P50613)
Sequence of UniProt P50613 (whole entry, looked up): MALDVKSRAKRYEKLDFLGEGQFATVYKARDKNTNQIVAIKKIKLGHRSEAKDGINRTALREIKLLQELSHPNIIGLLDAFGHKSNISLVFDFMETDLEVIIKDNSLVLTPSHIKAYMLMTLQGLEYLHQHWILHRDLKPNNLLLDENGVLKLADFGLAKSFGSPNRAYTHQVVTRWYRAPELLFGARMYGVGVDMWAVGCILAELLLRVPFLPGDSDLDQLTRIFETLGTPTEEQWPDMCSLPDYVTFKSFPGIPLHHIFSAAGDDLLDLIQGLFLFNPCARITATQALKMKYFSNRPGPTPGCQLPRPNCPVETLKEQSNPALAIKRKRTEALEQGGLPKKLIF
AMY2: Pancreatic alpha-amylase (AMY2, Sus scrofa, UniProt P00690)
Sequence of UniProt P00690 (whole entry, looked up): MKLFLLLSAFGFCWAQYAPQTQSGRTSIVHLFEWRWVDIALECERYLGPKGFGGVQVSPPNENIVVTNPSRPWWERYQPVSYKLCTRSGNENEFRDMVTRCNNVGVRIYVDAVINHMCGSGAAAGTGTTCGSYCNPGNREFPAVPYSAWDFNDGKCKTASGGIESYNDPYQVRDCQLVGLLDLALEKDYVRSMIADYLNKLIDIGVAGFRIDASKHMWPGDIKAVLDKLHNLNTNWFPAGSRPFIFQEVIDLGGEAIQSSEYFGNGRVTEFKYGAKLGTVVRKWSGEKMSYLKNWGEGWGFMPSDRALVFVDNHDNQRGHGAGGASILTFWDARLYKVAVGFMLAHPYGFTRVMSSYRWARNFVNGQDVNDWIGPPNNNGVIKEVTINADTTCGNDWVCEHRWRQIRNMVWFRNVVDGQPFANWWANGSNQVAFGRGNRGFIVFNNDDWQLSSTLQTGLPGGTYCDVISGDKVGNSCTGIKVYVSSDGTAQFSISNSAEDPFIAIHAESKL
NT5E: 5'-nucleotidase (NT5E, Homo sapiens, UniProt P21589)
Sequence of UniProt P21589 (whole entry, looked up): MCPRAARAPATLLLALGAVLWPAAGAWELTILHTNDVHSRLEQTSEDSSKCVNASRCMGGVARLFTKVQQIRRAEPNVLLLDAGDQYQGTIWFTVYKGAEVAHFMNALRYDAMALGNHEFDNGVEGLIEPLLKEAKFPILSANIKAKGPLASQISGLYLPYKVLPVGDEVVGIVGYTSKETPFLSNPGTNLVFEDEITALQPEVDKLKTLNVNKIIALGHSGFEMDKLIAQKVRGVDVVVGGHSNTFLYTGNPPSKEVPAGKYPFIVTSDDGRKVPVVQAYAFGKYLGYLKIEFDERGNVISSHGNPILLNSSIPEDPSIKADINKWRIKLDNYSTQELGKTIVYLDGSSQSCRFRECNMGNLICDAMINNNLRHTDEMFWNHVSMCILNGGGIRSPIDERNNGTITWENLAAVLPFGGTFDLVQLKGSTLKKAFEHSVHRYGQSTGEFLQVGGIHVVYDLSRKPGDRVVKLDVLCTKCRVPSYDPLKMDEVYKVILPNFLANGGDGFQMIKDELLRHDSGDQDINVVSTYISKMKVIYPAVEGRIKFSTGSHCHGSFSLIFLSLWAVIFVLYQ
SLC6A2: Sodium-dependent noradrenaline transporter (SLC6A2, Homo sapiens, UniProt P23975)
Sequence of UniProt P23975 (whole entry, looked up): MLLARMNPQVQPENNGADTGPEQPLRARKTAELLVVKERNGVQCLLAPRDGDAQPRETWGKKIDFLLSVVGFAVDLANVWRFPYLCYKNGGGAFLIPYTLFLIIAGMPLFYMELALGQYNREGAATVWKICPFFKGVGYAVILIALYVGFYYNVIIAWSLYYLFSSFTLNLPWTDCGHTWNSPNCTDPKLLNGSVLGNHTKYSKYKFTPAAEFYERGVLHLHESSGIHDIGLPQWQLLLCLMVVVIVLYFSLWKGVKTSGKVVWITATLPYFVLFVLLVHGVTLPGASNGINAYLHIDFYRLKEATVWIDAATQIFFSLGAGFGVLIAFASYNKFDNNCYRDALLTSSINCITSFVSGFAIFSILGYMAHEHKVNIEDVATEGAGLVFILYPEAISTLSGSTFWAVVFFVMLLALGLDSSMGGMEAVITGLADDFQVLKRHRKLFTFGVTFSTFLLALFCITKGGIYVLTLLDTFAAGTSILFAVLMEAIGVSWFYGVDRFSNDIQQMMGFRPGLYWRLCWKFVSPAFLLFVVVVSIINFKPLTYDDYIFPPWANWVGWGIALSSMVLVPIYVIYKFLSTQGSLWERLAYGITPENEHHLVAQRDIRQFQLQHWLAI
MPO: Myeloperoxidase (MPO, Homo sapiens, UniProt P05164)
Sequence of UniProt P05164 (whole entry, looked up): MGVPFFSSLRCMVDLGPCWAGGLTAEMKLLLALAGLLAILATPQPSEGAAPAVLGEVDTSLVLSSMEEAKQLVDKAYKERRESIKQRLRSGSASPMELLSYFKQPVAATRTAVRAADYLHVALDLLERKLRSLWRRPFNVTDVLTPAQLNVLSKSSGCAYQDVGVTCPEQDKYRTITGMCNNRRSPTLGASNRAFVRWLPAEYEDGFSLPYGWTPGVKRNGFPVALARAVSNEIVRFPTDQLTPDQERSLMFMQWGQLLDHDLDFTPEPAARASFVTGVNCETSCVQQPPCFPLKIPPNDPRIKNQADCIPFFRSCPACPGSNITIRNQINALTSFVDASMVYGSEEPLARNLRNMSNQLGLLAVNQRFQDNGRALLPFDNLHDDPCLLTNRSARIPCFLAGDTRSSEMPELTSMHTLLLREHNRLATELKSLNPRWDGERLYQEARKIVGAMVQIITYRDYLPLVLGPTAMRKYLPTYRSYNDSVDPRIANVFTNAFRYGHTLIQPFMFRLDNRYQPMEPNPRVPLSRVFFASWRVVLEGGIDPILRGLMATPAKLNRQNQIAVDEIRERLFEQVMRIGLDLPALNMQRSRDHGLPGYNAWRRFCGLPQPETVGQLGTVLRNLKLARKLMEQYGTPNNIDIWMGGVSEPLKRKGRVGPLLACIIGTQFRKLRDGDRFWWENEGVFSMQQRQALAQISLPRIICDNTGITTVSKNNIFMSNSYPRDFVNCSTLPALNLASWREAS
MAOB: Amine oxidase [flavin-containing] B (MAOB, Homo sapiens, UniProt P27338)
Sequence of UniProt P27338 (whole entry, looked up): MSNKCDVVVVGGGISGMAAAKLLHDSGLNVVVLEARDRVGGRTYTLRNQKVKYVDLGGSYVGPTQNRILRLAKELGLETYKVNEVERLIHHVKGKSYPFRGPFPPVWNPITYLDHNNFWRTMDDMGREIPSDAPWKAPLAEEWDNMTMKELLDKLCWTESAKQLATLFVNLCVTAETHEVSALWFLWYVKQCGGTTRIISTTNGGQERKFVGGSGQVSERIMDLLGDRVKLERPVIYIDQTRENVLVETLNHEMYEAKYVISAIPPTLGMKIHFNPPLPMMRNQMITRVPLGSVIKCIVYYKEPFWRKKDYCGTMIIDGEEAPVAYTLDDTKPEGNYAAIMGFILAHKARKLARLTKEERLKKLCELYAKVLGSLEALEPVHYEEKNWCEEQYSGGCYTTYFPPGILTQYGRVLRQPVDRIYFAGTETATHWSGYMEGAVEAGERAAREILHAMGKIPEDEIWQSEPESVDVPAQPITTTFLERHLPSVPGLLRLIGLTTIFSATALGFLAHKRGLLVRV
PIP4K2C: Phosphatidylinositol 5-phosphate 4-kinase type-2 gamma (PIP4K2C, Homo sapiens, UniProt Q8TBX8)
Sequence of UniProt Q8TBX8 (whole entry, looked up): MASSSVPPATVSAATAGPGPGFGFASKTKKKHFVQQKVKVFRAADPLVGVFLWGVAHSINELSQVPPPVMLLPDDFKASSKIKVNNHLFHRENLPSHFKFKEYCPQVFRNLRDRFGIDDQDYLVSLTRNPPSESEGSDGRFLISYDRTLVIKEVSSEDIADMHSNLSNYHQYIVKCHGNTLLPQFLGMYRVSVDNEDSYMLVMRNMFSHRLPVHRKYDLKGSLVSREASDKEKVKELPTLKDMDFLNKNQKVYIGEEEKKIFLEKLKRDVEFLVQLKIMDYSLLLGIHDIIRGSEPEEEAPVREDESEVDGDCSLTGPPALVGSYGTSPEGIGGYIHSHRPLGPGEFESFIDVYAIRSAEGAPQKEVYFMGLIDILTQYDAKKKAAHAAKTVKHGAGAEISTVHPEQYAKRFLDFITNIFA
rep papain-like protease: Replicase polyprotein 1ab, papain-like protease (rep, Porcine epidemic diarrhea virus, UniProt P0C6Y4)
Sequence of UniProt P32238 (whole entry, looked up): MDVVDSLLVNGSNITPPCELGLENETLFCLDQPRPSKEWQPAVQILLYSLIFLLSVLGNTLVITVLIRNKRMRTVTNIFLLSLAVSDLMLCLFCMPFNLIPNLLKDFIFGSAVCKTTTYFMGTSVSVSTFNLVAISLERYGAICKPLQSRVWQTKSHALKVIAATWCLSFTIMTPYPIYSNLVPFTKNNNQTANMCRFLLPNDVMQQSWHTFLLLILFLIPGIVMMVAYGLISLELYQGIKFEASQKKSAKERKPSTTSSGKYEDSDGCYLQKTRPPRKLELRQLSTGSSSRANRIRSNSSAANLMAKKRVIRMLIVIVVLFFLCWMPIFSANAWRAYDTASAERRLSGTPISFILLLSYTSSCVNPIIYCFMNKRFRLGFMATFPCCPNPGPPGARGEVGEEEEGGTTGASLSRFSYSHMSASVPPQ
Sequence of UniProt P41145 (whole entry, looked up): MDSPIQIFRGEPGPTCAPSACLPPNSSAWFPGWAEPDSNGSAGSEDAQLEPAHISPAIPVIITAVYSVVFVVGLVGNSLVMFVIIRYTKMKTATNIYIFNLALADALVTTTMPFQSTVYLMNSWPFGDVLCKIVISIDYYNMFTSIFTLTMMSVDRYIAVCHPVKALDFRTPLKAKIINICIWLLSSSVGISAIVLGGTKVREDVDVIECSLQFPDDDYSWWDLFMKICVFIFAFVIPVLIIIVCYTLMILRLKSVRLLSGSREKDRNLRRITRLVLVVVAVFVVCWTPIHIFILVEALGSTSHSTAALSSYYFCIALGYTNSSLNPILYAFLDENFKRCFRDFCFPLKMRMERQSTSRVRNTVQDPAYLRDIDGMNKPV
Sequence of UniProt Q00535 (whole entry, looked up): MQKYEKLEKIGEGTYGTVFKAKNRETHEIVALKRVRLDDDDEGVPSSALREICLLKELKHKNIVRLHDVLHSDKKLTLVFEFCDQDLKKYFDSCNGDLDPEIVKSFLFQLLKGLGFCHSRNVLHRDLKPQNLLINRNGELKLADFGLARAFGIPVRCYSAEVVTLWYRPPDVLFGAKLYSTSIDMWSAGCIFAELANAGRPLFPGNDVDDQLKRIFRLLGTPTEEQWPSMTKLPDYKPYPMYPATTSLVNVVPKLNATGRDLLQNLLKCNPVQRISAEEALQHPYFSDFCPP

| SMILES | target | assay | setting | inhibition |
| --- | --- | --- | --- | --- |
| O=C(NCc1ccc(O)c(O)c1)c1ccc(Br)cc1 | rep main protease | enzyme activity, inhibitor, FRET | 10 µM | 34.1% |
| CC(C)=CC[C@H]1C[C@@]23C[C@@H](CC=C(C)C)C(C)(C)[C@@](CC=C(C)C)(C(=O)C(C(=O)c4ccc(O)c(O)c4)=C2OC1(C)C)C3=O | CDK7 with cyclin H | enzyme activity, inhibitor, ADP detection | 10 µM | 30.8% |
| CCCN(O)N=Nc1ccc(S(=O)(=O)Nc2onc(C)c2C)cc1 | AMY2 | enzyme activity, inhibitor | 120 µg/mL | 47.4% |
| Cc1cc(-c2ccccc2)nc(SCC(=O)NCc2ccccc2)c1C#N | NT5E | enzyme activity, inhibitor | 10 µM | 47% |
| C#Cc1cc(-c2cc(Nc3nc(N[C@@H](C)c4ccc(F)cn4)ncc3Cl)n[nH]2)ccc1C=O | Serine/threonine-protein kinase LATS2 (LATS2, Homo sapiens, UniProt Q9NRM7) | enzyme activity, inhibitor | 0.2 µM | 25% |
| CCc1nn(C)c2nc(-c3ccc(C(=O)O)cc3)nc(NCc3ccc(F)cc3)c12 | High affinity 3',5'-cyclic-AMP phosphodiesterase 7A (PDE7A, Homo sapiens, UniProt Q13946) | enzyme activity, inhibitor, radiometric | 10 µM | 21.6% |
| CNC(=O)[C@@]12C[C@@H]1[C@@H](n1cnc3c(NCc4cccc(Cl)c4)nc(C#Cc4ccc(Cl)s4)nc31)[C@H](O)[C@@H]2O | SLC6A2 | ligand displacement, radioligand | 10 µM | 85% |
| C[C@]12CC[C@@H]3c4ccc(OS(=O)(=O)O)cc4CC[C@H]3[C@@H]1CCC2=O | Solute carrier family 22 member 11 (SLC22A11, Homo sapiens, UniProt Q9NSA0) | transporter uptake, inhibitor | 25 µM | 87% |
| CCN(O)N=Nc1ccc(S(=O)(=O)Nc2nccs2)cc1 | AMY2 | enzyme activity, inhibitor | 20 µg/mL | 5.26% |
| N#Cc1cccc(C(=O)NCc2cc(O)c(O)c(Br)c2)c1 | rep main protease | enzyme activity, inhibitor, FRET | 10 µM | 29.5% |
| CCN(O)N=Nc1ccc(S(=O)(=O)Nc2cc(C)on2)cc1 | AMY2 | enzyme activity, inhibitor | 300 µg/mL | 68.4% |
| Cc1cc(F)cc2c(CCC(=O)N[C@@H]3C(=O)NC[C@H]3O)c(-c3ccc(F)cc3)[nH]c12 | Kappa-type opioid receptor (OPRK1, Homo sapiens, UniProt P41145) | cell-free assay | 10 µM | 9% |
| Cc1noc(NS(=O)(=O)c2ccc(N=NN(O)c3ccccc3)cc2)c1C | AMY2 | enzyme activity, inhibitor | 60 µg/mL | 26.3% |
| NC/C(=C\F)COc1cccc(Cn2c(=S)[nH]c(=O)c3[nH]cnc32)c1 | MPO | enzyme activity, inhibitor, fluorescence | 10 µM | 99.5% |
| Cc1cc(NS(=O)(=O)c2ccc(N=NN(O)c3ccccc3)cc2)no1 | AMY2 | enzyme activity, inhibitor | 240 µg/mL | 63.2% |
| O=C(Nc1ccc(F)cc1)c1ccc2c(c1)C(=O)NC2=O | MAOB | enzyme activity, inhibitor | 1 µM | 44.2% |
| Cc1cc(NS(=O)(=O)c2ccc(N=NN(C)O)cc2)no1 | AMY2 | enzyme activity, inhibitor | 120 µg/mL | 21.1% |
| Cn1c(=O)c2c(ncn2C)n(C)c1=O | ATP-binding cassette sub-family C member 4 (ABCC4, Homo sapiens, UniProt O15439) | transporter uptake, inhibitor | 200 µM, oocytes | 20% |
| Cc1noc(NS(=O)(=O)c2ccc(N=NN(C)O)cc2)c1C | AMY2 | enzyme activity, inhibitor | 300 µg/mL | 68.4% |
| CCCCC(=O)Nc1ncc(-c2ccc3ncn(CCC)c(=O)c3c2)cn1 | PIP4K2C | binding, competition with immobilised ligand | 0.5 µM | 94.9% |
| Cc1cc(C)c2c(N)c(C(=O)NCc3ccccc3)sc2n1 | NT5E | enzyme activity, inhibitor | 10 µM | -22% |
| C=C1CC[C@@H]2[C@](C)(CO)[C@H](O)CC[C@@]2(C)[C@@H]1/C=C/C1=CCOC1=O | CDK7 with cyclin H | enzyme activity, inhibitor, ADP detection | 10 µM | 11.2% |

| SMILES | target | assay | setting | inhibition |
| --- | --- | --- | --- | --- |
| COc1cc(CNC(=O)c2ccc(Br)cc2)cc(Br)c1OC | rep main protease | enzyme activity, inhibitor, FRET | 10 µM | 64.3% |
| COc1ccc(NC(=O)c2ccc3c(c2)C(=O)NC3=O)cc1 | MAOB | enzyme activity, inhibitor | 1 µM | < 5% |
| CCCCC(=O)Nc1cc(F)c(-c2ccc3ncn(CCC)c(=O)c3c2)cn1 | PIP4K2C | binding, competition with immobilised ligand | 0.5 µM | 97.9% |
| CN1CC(Oc2cnc(C#N)cc2-c2ccn3nc(NC(=O)C4CC4)cc3c2)C1 | NUAK family SNF1-like kinase 1 (NUAK1, Homo sapiens, UniProt O60285) | enzyme activity, inhibitor | 1 µM | -14% |
| N#C[C@@]12C[C@@H]1[C@@H](n1cnc3c(Nc4ccccc4)nc(I)nc31)[C@H](O)[C@@H]2O | SLC6A2 | ligand displacement, radioligand | 10 µM | 11% |
| COc1cc(CNC(=O)c2sc3nc(C)cc(C(F)(F)F)c3c2N)cc(OC)c1OC | NT5E | enzyme activity, inhibitor | 10 µM | 22% |
| CC[C@H](C)[C@H](NC(=O)[C@H](CCC(N)=O)NC(=O)[C@@H](NC(=O)[C@H](CCSC)NC(=O)[C@H](CCCCN)NC(=O)[C@H](CO)NC(=O)[C@@H](NC(=O)[C@H](CCSC)NC(=O)[C@H](CC(C)C)NC(=O)[C@H](CC(N)=O)NC(=O)[C@@H](NC(=O)[C@@H](NC(=O)[C@H](CO)NC(=O)[C@H](CC(C)C)NC(=O)[C@H](C)NC(=O)[C@H](CCCNC(=N)N)NC(=O)[C@H](CCC(=O)O)NC(=O)[C@H](Cc1ccc(O)cc1)NC(=O)[C@H](Cc1ccccc1)NC(=O)[C@H](C)NC(=O)[C@H](CC(N)=O)NC(=O)[C@@H](N)CCCCN)[C@@H](C)CC)[C@@H](C)CC)[C@@H](C)O)C(C)C)C(=O)N[C@@H](CC(N)=O)C(=O)N[C@H](C(=O)O)C(C)C | Cyclin-dependent kinase 5, with p25 (CDK5, Homo sapiens, UniProt Q00535) | enzyme activity, inhibitor, radiometric | 250 µM | 73% |
| CCN1/C(=C/C(C)=O)Sc2ccc(F)cc21 | Cholecystokinin receptor type A (CCKAR, Homo sapiens, UniProt P32238) | ligand displacement, radioligand | 10 µM | 0% |
| CCCCC(=O)Nc1ccc(-c2ccc3ncn(CCC)c(=O)c3c2)cc1 | PIP4K2C | binding, competition with immobilised ligand | 0.5 µM | 99.7% |
| COC(=O)c1ccc(NC(=O)c2sc3nc(C)cc(-c4ccccc4)c3c2N)cc1 | NT5E | enzyme activity, inhibitor | 10 µM | -20% |
| Cc1cccc(N(O)N=Nc2ccc(S(=O)(=O)Nc3cc(C)on3)cc2)c1 | AMY2 | enzyme activity, inhibitor | 180 µg/mL | 47.4% |
| O=C(NCc1cc(O)c(O)c(Br)c1)c1cccs1 | rep papain-like protease | enzyme activity, inhibitor, FRET | 10 µM | 13.2% |
| CCCCC(=O)Nc1ccc(-c2cnc3ncn(CCC)c(=O)c3c2)cn1 | PIP4K2C | binding, competition with immobilised ligand | 0.5 µM | 91% |
| COc1ccc(C(=O)NCc2cc(O)c(O)c(Br)c2)cc1OC | rep papain-like protease | enzyme activity, inhibitor, FRET | 10 µM | 56.5% |
| COC(=O)CNC(=O)CCSc1nc(C)cc(C)c1C#N | NT5E | enzyme activity, inhibitor | 10 µM | -22% |
| O=C(NCc1cc(O)c(O)c(Br)c1)c1ccc(Cl)c(F)c1 | rep papain-like protease | enzyme activity, inhibitor, FRET | 10 µM | 75.5% |
| CO[C@H]1/C=C/O[C@@]2(C)Oc3c(C)c(O)c4c(O)c(cc(O)c4c3C2=O)NC(=O)/C(C)=C\C=C\[C@H](C)[C@H](O)[C@@H](C)[C@@H](O)[C@@H](C)[C@H](OC(C)=O)[C@@H]1C | CDK7 with cyclin H | enzyme activity, inhibitor, ADP detection | 10 µM | 13.2% |
| CN(C)c1ccc(C(=O)NCc2cc(O)c(O)c(Br)c2)cc1 | rep main protease | enzyme activity, inhibitor, FRET | 10 µM | 96.9% |
| COc1ccc(Cl)cc1-c1cc(=O)[nH]c(=S)n1CC(N)=O | MPO | enzyme activity, inhibitor, fluorescence | 5 µM | 97.9% |
| COc1cc(CNC(=O)c2cccc(OC(C)=O)c2C)cc(Br)c1OC | rep main protease | enzyme activity, inhibitor, FRET | 10 µM | 8.43% |
| Cc1cc(-c2ccccc2)c(C#N)c(SCC(=O)Nc2ccon2)n1 | NT5E | enzyme activity, inhibitor | 10 µM | 4% |

A few entries again:
| SMILES | target | assay | setting | inhibition |
| --- | --- | --- | --- | --- |
| COc1ccc(Cl)cc1-c1cc(=O)[nH]c(=S)n1CC(N)=O | MPO | enzyme activity, inhibitor, fluorescence | 5 µM | 97.9% |
| O=C(Nc1ccc(F)cc1)c1ccc2c(c1)C(=O)NC2=O | MAOB | enzyme activity, inhibitor | 1 µM | 44.2% |
| CCCN(O)N=Nc1ccc(S(=O)(=O)Nc2onc(C)c2C)cc1 | AMY2 | enzyme activity, inhibitor | 120 µg/mL | 47.4% |
| COc1ccc(NC(=O)c2ccc3c(c2)C(=O)NC3=O)cc1 | MAOB | enzyme activity, inhibitor | 1 µM | < 5% |
| COc1cc(CNC(=O)c2ccc(Br)cc2)cc(Br)c1OC | rep main protease | enzyme activity, inhibitor, FRET | 10 µM | 64.3% |
